Assay results collected from several papers.
Compare with care: the assays were run in different laboratories. Values joined by “and” are separate records of one study, mostly repeats; a detail may differ. ± gives the spread as reported.
SLC18A3: Vesicular acetylcholine transporter (SLC18A3, Homo sapiens, UniProt Q16572)
odorant-binding protein 24: odorant-binding protein 24 (Monochamus alternatus, UniProt A0A1I9HZN3)
HRH4: Histamine H4 receptor (HRH4, Homo sapiens, UniProt Q9H3N8)
SNCA fibrils: Alpha-synuclein, fibrils (SNCA, Homo sapiens, UniProt P37840)
Adcy2/ADCY5 C1/C2 domains: Adcy2/ADCY5, C1/C2 domains (Rattus norvegicus, UniProt P26769+P30803)
ADORA2A: Adenosine receptor A2a (ADORA2A, Homo sapiens, UniProt P29274)
OGG1: N-glycosylase/DNA lyase (OGG1, Homo sapiens, UniProt O15527)
Mapk1: Mitogen-activated protein kinase 1 (Mapk1, Rattus norvegicus, UniProt P63086)
Ribonucleoside-diphosphate reductase large subunit: Ribonucleoside-diphosphate reductase large subunit (Homo sapiens, UniProt P23921)

For O=C(c1ccc(S(=O)(=O)CCCF)cc1)C1CCN(C2Cc3ccccc3CC2O)CC1 (racemic), the Ki was 0.0128 µM (SLC18A3; ligand displacement, radioligand).
The Ki of COc1ccc(C(=O)/C=C/c2ccccc2)c(O)c1 is reported as 9 ± 1.2 µM (GABA-A receptor benzodiazepine site (rat); binding; rat cerebral cortex membranes; with: [3H]flunitrazepam).
For CC1=CCC(=C(C)C)CC1, the Ki was < 20 µM and 13.7 µM (odorant-binding protein 24; competitive fluorescence binding; pH 7.4, with: 1-NPN).
NC(=S)NCCCc1c[nH]cn1 has a Ki of 1.7 µM (HRH4; ligand displacement, radioligand; cell membranes).
COc1ccc(-c2cc(-c3nccs3)on2)cc1 has a Ki of 0.134 µM (SNCA fibrils; fibril binding, thioflavin T competition; 1 µM fibrils, with: thioflavin T 3 µM).
With Br the Ki was ~10000 µM (trans-3-chloroacrylic acid dehalogenase (Pseudomonas pavonaceae, UniProt Q9EV84+Q9EV85)).
With O=C(/C=C/c1ccccc1)c1ccccc1O the Ki was 17.1 ± 1.3 µM (GABA-A receptor benzodiazepine site (rat); binding; rat cerebral cortex membranes; with: [3H]flunitrazepam).
With Nc1ccn([C@@H]2O[C@H](CO)[C@@H](O)[C@H]2O)c(=O)n1 the Ki was > 10000 µM (P1-type nucleoside transporter; thymidine uptake, inhibitor; Trypanosoma brucei brucei, bloodstream form; 15 min, with: [3H]-thymidine).
The Ki of N=C(N)NCCCCCCCCNC(=N)NCCCc1c[nH]cn1 is reported as 0.145 µM (HRH4; ligand displacement, radioligand; cell membranes).
With COc1ccc(/C=C/C(=O)c2nccs2)cc1 the Ki was 0.053 ± 0.0198 µM (SNCA fibrils; fibril binding, thioflavin T competition; 1 µM fibrils, with: thioflavin T 3 µM).
N=C(N)NCCCCCCCCCCNC(=N)NCCCc1c[nH]cn1 has a Ki of 0.0316 µM (HRH4; ligand displacement, radioligand; cell membranes).
The Ki of CCOC(=O)C1=CC(C)(C(=O)c2ccccc2)CCC1=O (stereo not shown) is reported as 35.3 µM (Mitogen-activated protein kinase 8 (MAPK8, Homo sapiens, UniProt P45983); ligand displacement, FP).
N=C(N)NCCCCCCCCNC(=N)NCCCc1cnc(N)s1 gave a Ki of 2.4 µM (HRH4; ligand displacement, radioligand; cell membranes).
With CNc1ccccc1C(=O)O[C@@H]1C[C@@H](COP(=O)(O)OP(=O)(O)OP(=O)(O)O)O[C@H]1n1cnc2c(=O)[nH]c(N)nc21 the Ki was 1.2 ± 0.074 µM (Adcy2/ADCY5 C1/C2 domains; adenylyl cyclase activity, inhibitor, purified enzyme; with: 10 mM MnCl2, 100 µM forskolin, no Gsα-GTPγS).
With O=c1[nH]cc(F)c(=O)[nH]1 the Ki was > 1000 µM (P1-type nucleoside transporter; thymidine uptake, inhibitor; Trypanosoma brucei brucei, bloodstream form; 15 min, with: [3H]-thymidine).
The Ki of Nc1nc(Cl)nc2c1ncn2[C@@H]1O[C@H](CO)[C@@H](O)[C@@H]1F is reported as 17.1 µM (ADORA2A; ligand displacement, radioligand; cell membranes).
For OC1CCCc2ccc(OCc3ccc(Cl)cc3)cc21 (stereo not shown), the Ki was 1 µM (Amine oxidase [flavin-containing] A (MAOA, Homo sapiens, UniProt P21397); enzyme activity, inhibitor).
With Nc1nc2c(ncn2[C@H]2C[C@H](O)[C@@H](COP(=O)(O)O)O2)c(=O)[nH]1 the Ki was 6500 µM (OGG1; 8-oxoguanine excision, competitive inhibitor; pH 7.5, 37 °C, substrate at 2 × Km, with: 22 nM oxoguanine duplex DNA).
N=C(NCCCCCCCCCCN)NCCCc1c[nH]cn1 has a Ki of 0.166 µM (HRH4; ligand displacement, radioligand; cell membranes).
`MANT-UTP` has a Ki of 0.058 ± 0.0084 µM (Adcy2/ADCY5 C1/C2 domains; enzyme activity, inhibitor; with: 10 mM MnCl2 and 100 µM forskolin).
With Nc1ncnc2c1ncn2[C@@H]1O[C@H](COP(=O)(O)OP(=O)(O)O)[C@@H](O)[C@H]1O the Ki was 730 ± 56 µM (Mapk1; noncompetitive vs substrate; with: MgATP 1 mM, varied Sub-D).
N=C(NCCCCCCCCN)NCCCc1c[nH]cn1 has a Ki of 0.468 µM (HRH4; ligand displacement, radioligand; cell membranes).
Nc1nc(Cl)nc2c1ncn2[C@H]1C[C@H](O)[C@@H](COP(=O)(O)OP(=O)(O)O)O1 gave a Ki of 1.4 ± 0.7 µM (Ribonucleoside-diphosphate reductase large subunit; CDP reductase activity, inhibitor; 3 min, apparent Ki, with: CDP substrate, ATP effector).
With CS(N)(=O)=O the Ki was 919 ± 174 µM (Neutral amino acid transporter B(0) (Slc1a5, Rattus norvegicus, UniProt D3ZJ25); leak anion current, inhibitor, whole-cell patch clamp; HEK293; 0 mV, no external alanine, 140 mM NaCl external, SCN- internal).
COc1ccc(-c2nc(SCc3ncc[nH]3)nc(N)c2C#N)cc1 gave a Ki of 0.044 µM (ADORA2A; ligand displacement, radioligand; cell membranes).
The Ki of `(+)-β-pinene` is reported as > 50 µM (odorant-binding protein 24; competitive fluorescence binding; pH 5, with: 1-NPN).
Nc1ncnc2c1ncn2[C@@H]1O[C@H](COP(=O)(O)OP(=O)(O)O)[C@@H](O)[C@H]1O has a Ki of 100 ± 10 µM (Leucine-rich repeat serine/threonine-protein kinase 2 (LRRK2, Homo sapiens, UniProt Q5S007, G2019S); kinase activity, inhibitor, radiometric; Ki,eb, variable LRRKtide).
The Ki of N=C(NCCCCCCN)NCCCc1c[nH]cn1 is reported as 0.437 µM (HRH4; ligand displacement, radioligand; cell membranes).
With `(+)-α-pinene` the Ki was 34 ± 7.02 µM (odorant-binding protein 24; competitive fluorescence binding; pH 5, with: 1-NPN).
The Ki of CSC[C@H]1CN(Cc2c[nH]c3c(N)ncnc23)C[C@@H]1O is reported as 5e-06 ± 4e-07 µM (5'-methylthioadenosine/S-adenosylhomocysteine nucleosidase (mtnN, Salmonella choleraesuis, UniProt Q57T48); enzyme activity, slow-onset inhibitor; Salmonella enterica).
CNS(=O)(=O)c1ccc(C(=O)C2CCN(C3Cc4ccccc4CC3O)CC2)cc1 (racemic) gave a Ki of 0.0063 µM (SLC18A3; ligand displacement, radioligand).
The Ki of Nc1nc(F)nc2c1ncn2[C@@H]1O[C@H](COP(=O)(O)OP(=O)(O)OP(=O)(O)O)[C@@H](O)[C@@H]1O is reported as 6.8 ± 1.3 µM (Ribonucleoside-diphosphate reductase large subunit; CDP reductase activity, inhibitor; 3 min, apparent Ki, with: CDP substrate, ATP effector).
CCOC(=O)C1(CCN2CCc3ccccc3C2)Cc2cc(Cl)ccc2C1=O (stereo not shown) gave a Ki of 0.0501 µM (5-hydroxytryptamine receptor 1A (HTR1A, Homo sapiens, UniProt P08908); radioligand binding; with: [3H]8-OH-DPAT).
Nc1nc2c([nH]c(=O)n2[C@H]2C[C@H](O)[C@@H](COP(=O)(O)O)O2)c(=O)[nH]1 gave a Ki of 1600 µM (OGG1; 8-oxoguanine excision, competitive inhibitor; pH 7.5, 37 °C, substrate at 2 × Km, with: 22 nM oxoguanine duplex DNA).
C=C(C)[C@H]1CC=C(C)CC1 has a Ki of > 50 µM (odorant-binding protein 24; competitive fluorescence binding; pH 7.4, with: 1-NPN).
With CCCn1c(=O)n(CCCCN2CCN(c3ccc(F)cc3)CC2)c2ccccc21 the Ki was > 10 µM (rat opioid receptors; rat brain membranes; with: [3H]bremazocine).
For N=C(N)NCCCCCCNC(=N)NCCCc1c[nH]cn1, the Ki was 0.24 µM (HRH4; ligand displacement, radioligand; cell membranes).
CC(=O)N[C@@H](Cc1ccccc1)C(=O)N[C@@H](CCC(N)=O)C(=O)N[C@@H](CCCNC(=N)N)C(=O)N[C@@H](CCCCN)C(=O)N[C@H](C(=O)N[C@@H](CC(C)C)C(=O)N[C@@H](CCC(N)=O)C(=O)N[C@@H](CCCNC(=N)N)C(=O)N[C@@H](CCCNC(=N)N)C(=O)N[C@@H](CC(N)=O)C(=O)N[C@@H](CC(C)C)C(=O)N[C@@H](CCCCN)C(=O)NCC(=O)N[C@@H](CC(C)C)C(=O)N[C@@H](CC(N)=O)C(=O)N[C@@H](CC(C)C)C(=O)N[C@@H](CC(N)=O)C(=O)N[C@@H](CC(C)C)C(N)=O)[C@@H](C)O has a Ki of 20 ± 4 µM (Mapk1; competitive vs substrate; with: MgATP 1 mM, varied Sub-D).
The Ki of O=c1cc[nH]c(=O)[nH]1 is reported as > 2500 µM (P1-type nucleoside transporter; thymidine uptake, inhibitor; Trypanosoma brucei brucei, bloodstream form; 15 min, with: [3H]-thymidine).
With Nc1ncnc2c1ncn2[C@@H]1O[C@H](COP(=O)(O)OP(=O)(O)O)[C@@H](O)[C@H]1O the Ki was 300 ± 100 µM (Cyclin-dependent kinase 5, with p25 (CDK5, Homo sapiens, UniProt Q00535); inhibitor; ATP varied, with: 0.2 mM MgCl2).

A few entries again:
Nc1ncnc2c1ncn2[C@@H]1O[C@H](COP(=O)(O)OP(=O)(O)O)[C@@H](O)[C@H]1O has a Ki of 100 ± 10 µM (Leucine-rich repeat serine/threonine-protein kinase 2 (LRRK2, Homo sapiens, UniProt Q5S007, G2019S); kinase activity, inhibitor, radiometric; Ki,eb, variable LRRKtide).
The Ki of N=C(NCCCCCCN)NCCCc1c[nH]cn1 is reported as 0.437 µM (HRH4; ligand displacement, radioligand; cell membranes).
With `(+)-α-pinene` the Ki was 34 ± 7.02 µM (odorant-binding protein 24; competitive fluorescence binding; pH 5, with: 1-NPN).
